Measurements from different studies.
Lines come from different studies, so protocols differ. Numbers after ± are the reported error.
HCRTR1: Orexin/Hypocretin receptor type 1 (HCRTR1, Homo sapiens, UniProt O43613)
Chain of UniProt O43613 (whole entry, looked up): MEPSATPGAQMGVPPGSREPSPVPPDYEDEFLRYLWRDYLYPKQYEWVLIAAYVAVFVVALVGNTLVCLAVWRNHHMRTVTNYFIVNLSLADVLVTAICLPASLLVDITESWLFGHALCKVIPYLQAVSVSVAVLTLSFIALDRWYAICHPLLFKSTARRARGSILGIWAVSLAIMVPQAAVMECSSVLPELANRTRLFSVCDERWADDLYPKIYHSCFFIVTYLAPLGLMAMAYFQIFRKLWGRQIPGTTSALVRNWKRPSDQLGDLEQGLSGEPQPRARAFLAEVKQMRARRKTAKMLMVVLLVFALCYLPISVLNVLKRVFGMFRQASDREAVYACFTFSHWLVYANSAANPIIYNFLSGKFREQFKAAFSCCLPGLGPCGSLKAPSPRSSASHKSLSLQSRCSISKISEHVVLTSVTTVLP

| Compound | target or system | test | system | conditions | measurement | result |
| --- | --- | --- | --- | --- | --- | --- |
| CC[C@@H]([C@H](C)O)n1ncn(-c2ccc(N3CCN(c4ccc(OC[C@@H]5CO[C@@](Cn6cncn6)(c6ccc(F)cc6F)C5)cc4)CC3)cc2)c1=O | HepG2-NTCP | viability |  |  | CC50 | > 25 µM |
| COC(CN1CCn2cc(C(=O)NCc3ccc(F)cc3F)c(=O)c(O)c2C1=O)OC | HOS | cell growth or viability |  | 48 h | CC50 | > 250 µM |
| CC[C@H](C)C(=O)O[C@H]1CCC=C2C=C[C@H](C)[C@H](CC[C@@H]3C[C@@H](O)CC(=O)O3)[C@H]21 | HepG2-NTCP | viability |  |  | CC50 | > 25 µM |
| COc1cccc(-c2nc(C)c(C(=O)Nc3cccc(C(F)(F)F)c3)s2)c1 | HEK-293T | cell growth or viability, MTS |  | 72 h | CC50 | > 300 µM |
| COc1cc2c(cc1OC)C(Cc1ccc(OC)c(N(C)C)c1)N(CC(=O)NCc1ccccc1)CC2 (centres unmarked) | HCRTR1 | calcium signal, antagonist, fluorescence |  |  | Kb | 0.0127 µM |
| Nc1ccc(-c2nnn(C34CC5CC(CC(C5)C3)C4)n2)cc1Cl | MDCK | MTT |  | 72 h | CC50 | < 3 µg/mL |
| CCCC[C@H](NC(C)=O)C(=O)N[C@H]1CCC(=O)NC[C@@H](C(=O)N[C@@H](Cc2c[nH]c3ccccc23)C(N)=O)NC(=O)[C@H](CCCNC(=N)N)NC(=O)[C@@H](Cc2ccccc2)NC(=O)[C@H](Cc2c[nH]cn2)NC1=O |  |  | CD Sprague Dawley rat, male, plasma | subcutaneous, 25.0 mg/kg daily, day 14 | AUC(0-t) | 1860 ng·h/mL |
| COc1cccc(-c2nc(C)c(C(=O)Nc3cc(OC)ccc3OC)s2)c1 | HEK-293T | cell growth or viability, MTS |  | 72 h | CC50 | > 300 µM |
| COCC(C)n1ccn2cc(C(=O)NCc3ccc(F)cc3F)c(=O)c(O)c2c1=O (centres unmarked) | HOS | cell growth or viability |  | 48 h | CC50 | > 250 µM |
| CCCCOc1ccc(CC2c3cc(OC)c(OC)cc3CCN2CC(=O)NCc2ccccc2)cc1OC (centres unmarked) | HCRTR1 | calcium signal, antagonist, fluorescence |  |  | Kb | 0.048 µM |
| COc1cccc(-c2nc(C)c(C(=O)Nc3ccc(C(C)(C)C)cc3)s2)c1 | HEK-293T | MTS | 10% FBS medium | 72 h, normal cell line | CC50 | 117 ± 2.05 µM |
| C[C@H]1CO[C@@H]2Cn3cc(C(=O)NCc4ccc(F)cc4F)c(=O)c(O)c3C(=O)N12 | HOS | cell growth or viability |  | 48 h | CC50 | > 250 µM |
| COc1cccc(-c2nc(C)c(C(=O)Nc3ccc(SC)cc3)s2)c1 | HEK-293T | cell growth or viability, MTS |  | 72 h | CC50 | > 300 µM |
| O=C(NCc1ccc(F)cc1F)c1cn2c(c(O)c1=O)C(=O)NCC2 | HOS | cell growth or viability |  | 48 h | CC50 | > 250 µM |
| CC(C)[C@H](NC(=O)[C@@H]1CCCN1C(=O)[C@H](CCCNC(=N)N)NC(=O)[C@H](CS)NC(=O)[C@H](Cc1c[nH]c2ccccc12)NC(=O)[C@H](CCCNC(=N)N)NC(=O)[C@@H](Cc1ccccc1)NC(=O)[C@H](Cc1c[nH]cn1)NC(=O)[C@H](CCC(=O)O)NC(=O)[C@H](CS)NC(=O)[C@H](CS)NC(=O)[C@H](CCCCN)NC(=O)[C@@H]1CC(=O)N[C@@H](CCCNC(=N)N)C(=O)N[C@@H](C)C(=O)N[C@@H](CC(=O)O)C(=O)N[C@H](Cc2ccc(O)cc2)C(=O)N1)C(N)=O [technetium-99m labelled] |  |  | C57 mice, pancreas | intravenous, 0.037 MBq, 4 h | tissue uptake | 0.12 ± 0.05 %ID/g |
| COC(=O)Nc1nc2ccc(C(=O)c3cccs3)cc2[nH]1 | HepG2-NTCP | viability |  |  | CC50 | > 25 µM |
| COc1cc(NC(=O)c2sc(-c3cccc(OC)c3)nc2C)cc(OC)c1 | HEK-293T | cell growth or viability, MTS |  | 72 h | CC50 | > 300 µM |
| CC(C)CCCC(C)CCN1CCn2cc(C(=O)NCc3ccc(F)cc3F)c(=O)c(O)c2C1=O (centres unmarked) | HOS | cell growth or viability |  | 48 h | CC50 | > 250 µM |
| Clc1ccc(-c2nnn(C34CC5CC(CC(C5)C3)C4)n2)cc1 | MDCK | MTT |  | 72 h | CC50 | 4 ± 0.5 µg/mL |
| O=c1[nH]c(=O)n([C@H]2C[C@H](O)[C@@H](CO)O2)cc1F | HepG2-NTCP | viability |  |  | CC50 | > 25 µM |

Repeated from above:
| Compound | target or system | test | system | conditions | measurement | result |
| --- | --- | --- | --- | --- | --- | --- |
| COc1cccc(-c2nc(C)c(C(=O)Nc3ccc(SC)cc3)s2)c1 | HEK-293T | cell growth or viability, MTS |  | 72 h | CC50 | > 300 µM |
| O=C(NCc1ccc(F)cc1F)c1cn2c(c(O)c1=O)C(=O)NCC2 | HOS | cell growth or viability |  | 48 h | CC50 | > 250 µM |
| CC(C)[C@H](NC(=O)[C@@H]1CCCN1C(=O)[C@H](CCCNC(=N)N)NC(=O)[C@H](CS)NC(=O)[C@H](Cc1c[nH]c2ccccc12)NC(=O)[C@H](CCCNC(=N)N)NC(=O)[C@@H](Cc1ccccc1)NC(=O)[C@H](Cc1c[nH]cn1)NC(=O)[C@H](CCC(=O)O)NC(=O)[C@H](CS)NC(=O)[C@H](CS)NC(=O)[C@H](CCCCN)NC(=O)[C@@H]1CC(=O)N[C@@H](CCCNC(=N)N)C(=O)N[C@@H](C)C(=O)N[C@@H](CC(=O)O)C(=O)N[C@H](Cc2ccc(O)cc2)C(=O)N1)C(N)=O [technetium-99m labelled] |  |  | C57 mice, pancreas | intravenous, 0.037 MBq, 4 h | tissue uptake | 0.12 ± 0.05 %ID/g |
